# Results gathered from unrelated publications.
# Protocols differ between the studies behind these lines. Several values in a cell are separate wells, animals, samples, runs or records. ± marks the error that the study gave.
Compound,test,system,conditions,how to read,quantity,value
OCCOCc1ccc(-c2noc(-c3ccc(OCC[18F])c(C(F)(F)F)c3)n2)cc1,radio-HPLC,"Macaca mulatta, arterial plasma","180 min, radiotracer",,parent fraction in plasma,17 to 18%
O=C1c2ccncc2C(=O)c2c1[nH]c1ccccc21,,"Sprague-Dawley rat, female, right ventricle","oral, 5 mg/kg, 24 h",,tissue concentration,0.071 ± 0.029 nmol/mg
Cc1c(C(=O)O)ccc2c3n(nc12)[C@@H]1[C@H](C3)N(CC2CC2)[C@@]2(C(=O)Nc3cc(Cl)ccc32)[C@H]1c1cccc(Cl)c1F,,"female BALB/c nude mice, plasma","oral, 1 mg/kg twice daily, 4 h, SJSA-1 tumour-bearing",,plasma concentration,930 nM and 1280 nM and 815 nM and 751 nM
O=C(/C=C/CCc1ccc(O)cc1)/C=C/c1ccc(O)cc1,,nude mouse MCF7 xenograft,"20 mg/kg, day 4",,body weight,20.4 ± 1.1 g
C=CC(=O)N1CCC(c2ccc(C(N)=O)c(-c3ccc(Oc4ccccc4)cc3)n2)CC1,,relapsed/refractory mantle cell lymphoma patients,"oral, 150 mg once daily, part, CTCAE v4.03",,treatment-related AE rate,50%
Cc1c(-c2ccc(N3CCc4cccc(C(=O)Nc5nc6ccccc6s5)c4C3)nc2C(=O)O)cnn1CC12CC3(C)CC(C)(C1)CC(OCCNCC[C@H](O)CO)(C3)C2,,anaesthetized male beagle dog,"iv infusion, 0.01 mg/kg/min, 10 min",,plasma concentration,6 ng/mL
CN1C(=O)[C@@H](NC(=O)c2nnc(Cc3ccccc3)[nH]2)COc2cccnc21,,"healthy human, fasted, plasma","oral, 800 mg single dose, median",,Tmax,4 h
O=C1NCCc2nc(OCc3cccc(F)c3)ccc21,item: tail erection,Sprague-Dawley rat male,"oral, 100 mg/kg, 0 min","baseline: baseline, direction not given",Irwin test score,0
COc1c(N2C[C@@H]3CCCN[C@@H]3C2)c(F)cc2c(=O)c(C(=O)O)cn(C3CC3)c12,,"male Hartley guinea pigs, anaesthetized","intravenous, 1 mg/kg group, baseline before infusion",,heart rate,242 ± 1 beats/min
O=C(Nc1ccc(OC(F)(F)Cl)cc1)c1cnc(N2CC[C@@H](O)C2)c(-c2ccn[nH]2)c1,"per laboratory record, item: amylase increase",human patients,"oral, dose not given, dose-finding study",,grade ≥3 event rate,0.3%
O=c1cc(-c2ccccc2)oc2ccccc12,,human CSF,"concentration not given, mean",,CSF concentration,not detected
COc1ccnc(C(N)=O)c1O,FOCUS PEARL groundwater modelling,soil,geometric mean input,,KOC,669 mL/g
COc1cc(CC(=O)O)ccc1OS(=O)(=O)O,,human CSF,"concentration not given, mean",,CSF concentration,not detected
O=C(Nc1cnccc1Cl)N1CCN(Cc2ccc3c(c2)OC(F)(F)O3)CC1,item: Presyncope,healthy elderly humans,"100 mg once daily, 10 days",,volunteers with adverse event,0%
CCCCc1oc2ccccc2c1C(=O)c1cc(I)c(OCCN(CC)CC)c(I)c1,,"male Hartley guinea pigs, anaesthetized","intravenous, 5 mg/kg group, baseline before infusion",,heart rate,223 ± 0.2 beats/min
CN1C[C@H](COc2nccc3c(NCc4ccco4)cc(Cl)nc23)OC1=O,Langendorff heart,"rabbit, isolated heart","concentration not given, positive if change >2 SD",,heart rate,negative
CCCCCCC#Cc1cncc(-c2nnc(SCc3ccc(Cl)cc3)n2C2CC2)c1,,African green monkey cells,72 h,,CC50,25 ± 2.45 µM
Cc1ccc(Sc2ccccc2N2CCNCC2)c(C)c1,item: Nausea,healthy adult men,"oral, 20 mg daily, 12 days",,participants with TEAE,0%
CN1CCN(c2cccc3c2CCN(C(=O)/C=C/c2c(-n4cnnn4)ccc(Cl)c2F)[C@@H]3C(=O)Nc2ccc(C(=O)O)cc2)C(=O)C1,,healthy human subjects,"intravenous infusion, 20 mg/h, 5 days",,subjects with treatment-related adverse event,0%
Cn1cnc2c(F)c(Nc3ccc(Br)cc3Cl)c(C(=O)NOCCO)cc21,,"human, plasma","oral, dose not given, zero-order absorption",,peripheral volume of distribution,52.5 L
C=CC(=O)N(C)CCOc1c(N)ncnc1-c1cc(F)cc(NC(=O)c2ccc(C3CC3)cc2F)c1C,,"human, whole blood","oral, 15 mg, single ascending dose",,AUC(0-t),25.1 ng·h/mL
C[C@@H]1CN(CC(=O)N2CC(C)(C)c3ncc(Cc4ccc(F)cc4)cc32)[C@@H](CN2CCOC[C@H]2C)CN1,,male cynomolgus monkey,"oral, 30 mg/kg",,oral bioavailability,4 ± 0.54%
CN(C(=O)n1cnc(-c2cccnc2)c1)[C@H]1CC[C@H](O)CC1,,"Wistar rat, midbrain","oral, 10 mg/kg/day of BIA 10-2474, 72 h, repeated 5 days",,concentration,16.6 ± 1.3 ng/g
C[C@@H](Nc1cc(F)cc(F)c1)c1cc(C(=O)N(C)C)cc2c(=O)cc(N3CCOCC3)oc12,item: Clostridioides difficile colitis,patients with advanced solid tumours,"oral, dose not given, dose expansion phase I",,treatment-related serious adverse events,0%
Cc1ccc([C@@H]2O[C@H](CO)[C@@H](O)[C@H](O)[C@H]2O)cc1Cc1ccc(-c2ccc(F)cc2)s1,item: inorganic phosphorus,Japanese type 2 diabetes patients,"25 mg, day 2, 24 h urine collection",baseline: baseline,urinary phosphate excretion change,48 mg
COc1ncc(-c2nc3c(n2C(C)C)[C@H](c2ccc(Cl)cc2)N(c2cc(Cl)cn(C)c2=O)C3=O)c(OC)n1,LC-MS/MS,"human, plasma","oral, 50 mg, cycle 1 day 1, high-dose arm",,Cmax,467 ng/mL
C[C@@H](Oc1ccc(S(C)(=O)=O)cc1C(=O)N1C[C@@H]2C[C@]2(c2cc(C(F)(F)F)on2)C1)C(F)(F)F,,"young humans, plasma","oral, 75 mg once daily, single dose, geometric mean",,Vz/F,426 L
C=CS(=O)(=O)Nc1ccc(OC)c(-c2c[nH]c3ncc(-c4cncc(C(=O)N(C)C)c4)cc23)c1,HPLC,,"50 µM, 37 °C, no lysine, followed to 24 h",,hydrolytic half-life,> 24 h
CC(=O)N(C)[C@H]1CCN(C(=O)c2cnc3c(c2)C[C@](C)(c2ccc(F)cc2)N3)C1,item: Headache,human,"oral, 15 mg once daily",,adverse event duration,1 days
COc1ccc2c(=O)n(C)c(-c3ccccc3)nc2c1,,"Sprague-Dawley rat, male, small intestine","oral, 30 mg/kg, 2 h",,concentration,4630 ng/mL
CC(C)NCC(O)COc1cccc2ccccc12 (stereo not drawn),,"male Hartley guinea pigs, anaesthetized","intravenous, 3 mg/kg group, baseline before infusion",,heart rate,217 ± 0.4 beats/min
[18F]c1ccc(-c2ccc3c(c2)[nH]c2ccncc23)cn1,ex vivo biodistribution,"normal B6SJL mice, adipose","intravenous, 30 min",,uptake,0.299 ± 0.344 SUV
COc1cc2nccc(Oc3ccc(NC(=O)c4cc5c(n(-c6ccccc6)c4=O)CCCC5=O)nc3)c2cc1OC,,patients with relapsed/refractory AML,"oral, 6 mg once daily",,TEAEs leading to discontinuation,0%
Cc1cc(NC2CCN(C(=O)OC3CCN(C(=O)/C=C/CN(C)C)C3)CC2)n2ncc(C(C)C)c2n1 (stereo not drawn),"CTCAE v4.0, item: Hypomagnesemia",patients with advanced solid tumours,"oral, dose not given, all schedules, grade 3 or higher",,patients with TEAE,0%
CCOc1c([C@H](C)n2nc(C)c3c(N)ncnc32)cc(Cl)c(F)c1[C@@H]1CNC(=O)C1,,"patients, monotherapy","oral, 5 mg once daily, cycle 1 day 1",,Tmax median,2 h
C=CC(=O)Nc1cc(Nc2nccc(-c3cn(C)c4ccccc34)n2)c(OC)cc1N(C)CCN(C)C,storage stability,human plasma,"5 h, on ice, medium QC level",,recovery,91.2%
CCN1/C(=C/C(C)=O)Sc2ccc(F)cc21,,cynomolgus monkey,"oral, 30 mg/kg, 1 h post-dose",,heart rate,106 ± 17 beats/min
Cc1cc(-c2nnc(N)nc2-c2ccc(F)cc2)cc(Cl)n1,,"human, post-IO other solid tumours","oral, 100 mg, phase Ia/Ib, any grade",,patients with treatment-related diarrhoea,4.8%
Clc1ccccc1C(c1ccccc1)(c1ccccc1)n1ccnc1,,"50 mM phosphate buffer, 100 µg/mL HPMCAS","pH 6.5, 37 °C, average of three methods",,amorphous solubility,5.1 µg/mL
CNc1ccc(-c2nc3ccc(O)cc3s2)cc1 [carbon-11 labelled],ex vivo biodistribution,"APP/PS1 Alzheimer mice, brain stem","intravenous, 30 min",,uptake,0.241 ± 0.13 SUV
CCc1c(-c2ccccc2)c(-c2ccccc2)nn1-c1ccccc1-c1cccc(OCC(=O)O)c1,,"female Sprague-Dawley rat, fat","oral, 10 mg/kg, 8 h",,tissue distribution,8.15%
NCCOCCOCCNCc1ccc(CNC(=O)c2csc3nc[nH]c(=O)c23)cc1,haemolysis,human red blood cells,"1 h, 37 °C",,EC50,> 100 µM
Cc1ccc(C(=O)N(CCCN)C(c2nc3snc(C)c3c(=O)n2Cc2ccccc2)C(C)C)cc1 (stereo not drawn),,human patients,"intravenous, 16 mg/day",,grade ≥3 hyperbilirubinemia patients,14%
CCCCCCOC(=O)NC(=N)c1ccc(NCc2nc3cc(C(=O)N(CCC(=O)OCC)c4ccccn4)ccc3n2C)cc1,,human,"oral, 75 mg, compound alone",,participants with TEAE hot flush,4.2%
O=C1CCc2ccc(OCCCCN3CCN(c4cccc(Cl)c4Cl)CC3)cc2N1,,CYP2D6 normal metabolizers,"concentration not given, genotype-based phenotype, long-acting oral or depot",,cardiovascular symptom frequency,2.5%
COc1ccc2[nH]c([S+]([O-])Cc3ncc(C)c(OC)c3C)nc2c1 (stereo not drawn),,"healthy Chinese volunteers CYP2C19 IM, plasma","oral, 20 mg single dose, enteric-coated tablets",,AUC(0-t),833 ± 499 ng·h/mL
C[C@@H](Oc1ccc(S(C)(=O)=O)cc1C(=O)N1C[C@@H]2C[C@]2(c2cc(C(F)(F)F)on2)C1)C(F)(F)F,,human,"oral, 25 mg",,incidence of Dizziness,16.7%
O=C(N[C@H](Cc1c[nH]c2ccccc12)C(=O)Nc1ccncc1)c1ccc(N2CCN(c3ccc(F)cc3F)CC2)cc1F,,"Swiss Webster mouse, female, muscle","oral, 50 mg/kg, 8 h, 20% HPβCD vehicle",,concentration,3750 nM
C=CC(=O)N(C)CCOc1c(N)ncnc1-c1cc(F)cc(NC(=O)c2ccc(C3CC3)cc2F)c1C,,human,"oral, 15 mg single dose",,Cmax,24.8 ng/mL
CNCc1ccc(-c2[nH]c3cc(F)cc4c3c2CCNC4=O)cc1,,patients,"oral, 600 mg twice daily, grade 5",,anaemia incidence,0%
CCc1cc(C(=O)NC)c2nccc(N3CCc4c(cc(Cn5ccnc5)cc4-c4cn(C)nc4C(F)(F)F)C3=O)c2c1,,Sprague Dawley rats,"oral, 100 mg/kg once daily, 7 days",,serum GGT activity,0.5 ± 0.58 U/L
C=CC(=O)NC1CCN(c2ncc3ncnc(Nc4ccc(Oc5ccc6c(c5)ncn6C)c(C)c4)c3n2)CC1,,healthy male humans,"oral, 240 mg",,participants with oropharyngeal pain TEAE,6.3%
COc1ccc([C@@H](O)c2cc(-c3ncnc4cc(N5CCOCC5)ccc34)c(F)cc2Cl)nn1,,locally advanced rectal cancer patients,"100 mg, together with: capecitabine and radiotherapy",,drug-related blood lymphatic AE,33%
Cc1ccc(O)c(O)c1,,human CSF,"concentration not given, mean",,CSF concentration,not detected
N#Cc1ccc2c(c1)[C@H]1CCCN(C(=O)c3ccc4[nH]cnc4c3)[C@H]1C2,,human,"10 mg, end of trial",,maximum ACTH level,15.1 pmol/L
O=C1C[C@@H](c2ccc(O)cc2)Oc2cc(O[C@@H]3O[C@H](C(=O)O)[C@@H](O)[C@H](O)[C@H]3O)cc(O)c21,,human CSF,"concentration not given, mean",,CSF concentration,not detected
CC(C)(C(=O)N1CCOc2c(C#N)cncc2C1)C(F)F,,"human, both sexes","oral, 30 mg single dose",,subjects with tachycardia TEAE,0%
